Measured values of several laboratories.
Protocols differ between the studies behind these lines.

assay = rapid equilibrium dialysis; system = mouse plasma; fraction unbound = 0.0418; SMILES = COC1C=COC2(C)Oc3c(C)c(O)c4c(c3C2=O)C2=NC3(CCN(CC(C)C)CC3)NC2=C(NC(=O)C(C)=CC=CC(C)C(O)C(C)C(O)C(C)C(OC(=O)Nc2cnccn2)C1C)C4=O (stereo not shown)
assay = rapid equilibrium dialysis; system = mouse plasma; setting = 1 µM, 4 h; fraction unbound = 0.022; SMILES = NS(=O)(=O)c1ccc(NC(=O)[C@H](CC2CCCCC2)Nc2nn3c(=O)ccnc3s2)cc1
assay = rapid equilibrium dialysis; system = mouse plasma; fraction unbound = 0.0205; SMILES = COC1C=COC2(C)Oc3c(C)c(O)c4c(c3C2=O)C2=NC3(CCN(CC(C)C)CC3)NC2=C(NC(=O)C(C)=CC=CC(C)C(O)C(C)C(O)C(C)C(OC(=O)c2cccnc2)C1C)C4=O (stereo not shown)
system = rat plasma diluted 25%; setting = 1 µM, 6 h, pH 7.4; fraction unbound = 0.45; SMILES = CN1CC[C@@H](COc2cnc(C#N)cc2-c2ccn3nc(NC(=O)C4CC4)cc3c2)C1
assay = rapid equilibrium dialysis; system = mouse plasma; fraction unbound = 0.0683; SMILES = COC1C=COC2(C)Oc3c(C)c(O)c4c(c3C2=O)C2=NC3(CCN(CC(C)C)CC3)NC2=C(NC(=O)C(C)=CC=CC(C)C(O)C(C)C(O)C(C)C(OC(=O)Nc2cccnn2)C1C)C4=O (stereo not shown)
assay = equilibrium dialysis; system = mouse brain homogenate; setting = 10 µg/g, 5 h, 37 °C; fraction unbound = 0.184; SMILES = CC1Cc2ccccc2N1C(=O)CN1CCN(Cc2ccccc2)CC1 (stereo not shown)
assay = equilibrium dialysis; system = rat plasma; setting = 4 h, pH 7.4; fraction unbound = 0.014; SMILES = O=C(Nc1nc(C(F)(F)F)co1)C1c2ccccc2Oc2ccccc21
assay = equilibrium dialysis; system = human plasma; setting = 5 µM, 6 h; fraction unbound = < 0.001; SMILES = Cc1nc2ccc(S(=O)(=O)n3nc(SCc4ccc(Cl)cc4)nc3N)cc2s1
assay = equilibrium dialysis; system = rat plasma; setting = 5 µg/mL, 4 h, pH 7.4; fraction unbound = 0.05; SMILES = OCC1OC(n2cnc3c(NCc4ccc(Br)s4)ncnc32)C(O)C1O (stereo not shown)
system = human plasma; fraction unbound = 0.0941; SMILES = COC1C=COC2(C)Oc3c(C)c(O)c4c(c3C2=O)C2=NC3(CCN(CC(C)C)CC3)NC2=C(NC(=O)C(C)=CC=CC(C)C(O)C(C)C(O)C(C)C(OC(=O)c2cncnc2)C1C)C4=O (stereo not shown)
assay = rapid equilibrium dialysis; system = mouse plasma; setting = 1 µM, 4 h; fraction unbound = 0.0044; SMILES = O=C(Nc1ccc(C(F)F)cc1)[C@H](CC1CCCCC1)Nc1nn2c(=O)ccnc2s1
system = baboon plasma; setting = 10 min; fraction unbound = 0.014; SMILES = [11CH3]N(Cc1ccc(/C=C/C(=O)NO)cc1)CC12CC3CC(CC(C3)C1)C2
assay = equilibrium dialysis; system = mouse plasma; fraction unbound = 0.041; SMILES = O=C(CNC(=O)c1cccc(NC2=NCCCO2)c1)NC[C@H](NC(=O)c1c(Cl)cc(-c2ccccc2)cc1Cl)C(=O)O
assay = equilibrium dialysis; system = mouse plasma; setting = 5 µM, 6 h; fraction unbound = 0.002; SMILES = Nc1nc(SCc2ccc(Cl)cc2)nn1S(=O)(=O)c1ccc2c(c1)CCO2
assay = rapid equilibrium dialysis; system = mouse plasma; fraction unbound = 0.0012; SMILES = COc1ccccc1NC(=O)OC1C(C)C(OC)C=COC2(C)Oc3c(C)c(O)c4c(c3C2=O)C2=NC3(CCN(CC(C)C)CC3)NC2=C(NC(=O)C(C)=CC=CC(C)C(O)C(C)C(O)C1C)C4=O (stereo not shown)
assay = equilibrium dialysis; system = mouse plasma; fraction unbound = 0.035; SMILES = O=C(CNC(=O)c1cccc(NC2=NCC(F)(F)CN2)c1)NC[C@H](NC(=O)c1c(Cl)cc(-c2ccccc2)cc1Cl)C(=O)O

Repeated from above:
assay = rapid equilibrium dialysis; system = mouse plasma; fraction unbound = 0.0683; SMILES = COC1C=COC2(C)Oc3c(C)c(O)c4c(c3C2=O)C2=NC3(CCN(CC(C)C)CC3)NC2=C(NC(=O)C(C)=CC=CC(C)C(O)C(C)C(O)C(C)C(OC(=O)Nc2cccnn2)C1C)C4=O (stereo not shown)
assay = equilibrium dialysis; system = mouse brain homogenate; setting = 10 µg/g, 5 h, 37 °C; fraction unbound = 0.184; SMILES = CC1Cc2ccccc2N1C(=O)CN1CCN(Cc2ccccc2)CC1 (stereo not shown)
assay = equilibrium dialysis; system = rat plasma; setting = 4 h, pH 7.4; fraction unbound = 0.014; SMILES = O=C(Nc1nc(C(F)(F)F)co1)C1c2ccccc2Oc2ccccc21
